Assay results from different studies.
Target: Serine/threonine-protein kinase LATS1 (LATS1, Homo sapiens, UniProt O95835)
One construct used (O95835 1-1130): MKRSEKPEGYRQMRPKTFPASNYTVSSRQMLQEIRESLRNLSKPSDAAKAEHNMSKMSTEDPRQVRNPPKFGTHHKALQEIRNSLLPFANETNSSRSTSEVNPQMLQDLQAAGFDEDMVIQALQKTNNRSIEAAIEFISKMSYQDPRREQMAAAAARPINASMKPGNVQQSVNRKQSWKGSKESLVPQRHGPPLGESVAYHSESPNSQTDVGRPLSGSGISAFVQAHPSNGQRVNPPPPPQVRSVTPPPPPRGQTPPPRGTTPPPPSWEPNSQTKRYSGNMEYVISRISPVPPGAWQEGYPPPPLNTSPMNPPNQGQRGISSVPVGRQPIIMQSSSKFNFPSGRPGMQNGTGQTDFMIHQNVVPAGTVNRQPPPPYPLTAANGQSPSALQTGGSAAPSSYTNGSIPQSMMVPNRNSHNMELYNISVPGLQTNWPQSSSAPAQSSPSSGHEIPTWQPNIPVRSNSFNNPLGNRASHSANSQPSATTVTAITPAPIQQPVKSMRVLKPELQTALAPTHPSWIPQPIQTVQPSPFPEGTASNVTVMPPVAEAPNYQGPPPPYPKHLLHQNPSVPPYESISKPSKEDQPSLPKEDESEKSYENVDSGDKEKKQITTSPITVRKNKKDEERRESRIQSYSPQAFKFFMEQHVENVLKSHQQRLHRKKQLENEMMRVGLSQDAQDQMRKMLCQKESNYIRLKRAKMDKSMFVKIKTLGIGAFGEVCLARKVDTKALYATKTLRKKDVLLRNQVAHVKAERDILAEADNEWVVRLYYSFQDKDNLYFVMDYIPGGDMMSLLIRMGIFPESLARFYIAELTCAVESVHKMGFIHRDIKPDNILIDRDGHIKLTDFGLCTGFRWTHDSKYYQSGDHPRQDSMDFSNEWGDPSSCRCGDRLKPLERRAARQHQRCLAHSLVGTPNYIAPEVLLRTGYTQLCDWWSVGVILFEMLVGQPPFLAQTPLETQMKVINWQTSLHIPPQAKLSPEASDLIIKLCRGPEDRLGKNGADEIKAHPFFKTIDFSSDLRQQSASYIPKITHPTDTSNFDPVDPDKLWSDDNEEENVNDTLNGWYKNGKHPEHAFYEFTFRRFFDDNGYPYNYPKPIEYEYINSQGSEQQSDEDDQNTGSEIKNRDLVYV

CCn1cc(C(=O)O)c(=O)c2c(N)c(F)c(NC3CCCCC3)cc21
inhibition (kinase activity; 0.1 µM, together with: ATP at Km): -14.9%

COc1cc(Nc2nccc(-c3cnn4nc(OC)ccc34)n2)cc(C(F)(F)F)c1
remaining binding (binding, competition with immobilised ligand; 1 µM): 71%

Cc1cccc(O[C@H]2CCC[C@@H](C(C)CNCc3ccncc3)C2)c1 (relative stereo)
inhibition (enzyme activity, inhibitor; 1 µM): 4%

Cc1ccc(-c2c(/C=C(\C#N)C(=O)NC(C)C)n(CCCO)c3ncnc(N)c23)cc1
remaining binding (cell-free assay, competition with immobilised ligand; 1 µM): 90%

C=CC(=O)N1CCc2ccc(-n3c(=O)ccc4cnc5ccc(-c6cnn(C)c6)cc5c43)cc21
remaining binding (KINOMEscan; 1 µM; reference: DMSO control): 100%

C=CC(=O)N1CCCC(n2c(=O)c3ncccc3n(Cc3ccc(Oc4ccccc4)cc3)c2=O)C1 (stereo not shown)
remaining binding (cell-free assay, competition with immobilised ligand; 1 µM): 100%

NC(=O)C[C@H]1CCc2sc3ncnc(O[C@H]4CC[C@H](N5CCOCC5)CC4)c3c21
inhibition (enzyme activity, inhibitor; 10 µM): 4%

CC(C)=CC1OC(C)(C)C2C=C3C(=O)C(Cl)=CC(O)C3C3C(O)C4OC4C(=O)C132 (stereo not shown)
remaining binding (cell-free assay, competition with immobilised ligand; 10 µM): 100%

O=C(Cc1ccc(OCc2ccccc2)cc1)NC1(C(=O)O)CCN(C(=O)c2ccc(-c3cccc(Cl)c3)cc2)CC1
activity vs control (enzyme activity, inhibitor; 10 µM): 126%

Nc1ncc(-c2cc(-c3cnn(CC(F)(F)F)c3)ncc2F)nc1C(=O)NC1CNCC(F)C1 (stereo not shown)
remaining activity (enzyme activity; 1 µM; reference: DMSO control): 93.9%
